Results gathered from unrelated publications.
Every numbered part comes from another study and shows a few of its results, in no order. Changes are numbered by the printed parent chain.
Sequence of UniProt P42681 (whole entry, looked up): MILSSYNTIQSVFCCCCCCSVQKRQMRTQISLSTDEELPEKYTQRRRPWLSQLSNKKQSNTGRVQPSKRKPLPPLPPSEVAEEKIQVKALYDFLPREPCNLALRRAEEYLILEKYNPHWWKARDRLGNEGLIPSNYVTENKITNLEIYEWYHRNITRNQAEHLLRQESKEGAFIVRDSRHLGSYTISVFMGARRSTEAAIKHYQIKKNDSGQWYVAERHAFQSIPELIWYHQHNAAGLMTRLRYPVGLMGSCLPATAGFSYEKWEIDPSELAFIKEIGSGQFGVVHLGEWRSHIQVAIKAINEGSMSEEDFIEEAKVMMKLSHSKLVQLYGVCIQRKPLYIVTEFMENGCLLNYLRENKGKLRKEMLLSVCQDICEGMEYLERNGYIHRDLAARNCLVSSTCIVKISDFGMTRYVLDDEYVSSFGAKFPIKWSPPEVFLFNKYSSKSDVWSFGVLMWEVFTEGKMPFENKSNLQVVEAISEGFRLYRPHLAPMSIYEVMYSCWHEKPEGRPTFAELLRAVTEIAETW
Sequence of UniProt P11362 (whole entry, looked up): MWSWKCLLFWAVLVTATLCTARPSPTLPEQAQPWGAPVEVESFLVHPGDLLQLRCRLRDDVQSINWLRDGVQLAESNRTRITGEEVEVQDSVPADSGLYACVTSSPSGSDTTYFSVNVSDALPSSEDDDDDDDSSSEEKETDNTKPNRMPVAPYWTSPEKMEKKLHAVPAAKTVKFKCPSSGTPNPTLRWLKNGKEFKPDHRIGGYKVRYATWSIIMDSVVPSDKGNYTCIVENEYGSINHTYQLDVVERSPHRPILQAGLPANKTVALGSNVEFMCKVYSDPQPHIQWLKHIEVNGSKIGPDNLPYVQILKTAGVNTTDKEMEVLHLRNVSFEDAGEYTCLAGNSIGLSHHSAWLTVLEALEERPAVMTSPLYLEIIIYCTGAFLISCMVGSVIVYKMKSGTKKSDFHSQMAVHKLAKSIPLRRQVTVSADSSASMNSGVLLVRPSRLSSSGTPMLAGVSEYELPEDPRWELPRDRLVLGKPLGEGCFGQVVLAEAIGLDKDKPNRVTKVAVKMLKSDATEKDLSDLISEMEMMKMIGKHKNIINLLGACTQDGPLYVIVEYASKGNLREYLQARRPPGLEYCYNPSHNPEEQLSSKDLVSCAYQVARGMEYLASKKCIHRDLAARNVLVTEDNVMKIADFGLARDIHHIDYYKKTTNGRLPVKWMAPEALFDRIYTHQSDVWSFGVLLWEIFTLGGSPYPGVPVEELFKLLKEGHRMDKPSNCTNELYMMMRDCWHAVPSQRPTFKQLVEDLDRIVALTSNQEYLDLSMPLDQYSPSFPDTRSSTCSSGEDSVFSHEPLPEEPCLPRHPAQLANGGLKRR
Sequence of UniProt P51956 (whole entry, looked up): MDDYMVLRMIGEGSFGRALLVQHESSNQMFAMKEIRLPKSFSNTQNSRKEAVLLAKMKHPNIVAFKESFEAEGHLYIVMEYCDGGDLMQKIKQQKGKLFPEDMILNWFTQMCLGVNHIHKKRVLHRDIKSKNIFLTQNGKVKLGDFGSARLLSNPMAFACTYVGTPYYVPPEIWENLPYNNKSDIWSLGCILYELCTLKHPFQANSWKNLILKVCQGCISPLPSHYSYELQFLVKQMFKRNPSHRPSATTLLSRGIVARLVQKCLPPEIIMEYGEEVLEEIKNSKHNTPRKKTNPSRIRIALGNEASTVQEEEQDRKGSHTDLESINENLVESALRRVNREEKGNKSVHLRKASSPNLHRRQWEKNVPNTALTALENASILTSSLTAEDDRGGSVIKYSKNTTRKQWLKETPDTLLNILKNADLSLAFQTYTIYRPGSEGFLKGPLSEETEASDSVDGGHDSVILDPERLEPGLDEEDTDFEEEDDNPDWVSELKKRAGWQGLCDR

Sample 1
SMILES: CN(C)CC#Cc1ccc(OCCCc2sc(N3CCc4cccc(C(=O)Nc5nc6ccccc6s5)c4C3)nc2C(=O)O)c(F)c1
Method: competition with immobilised ligand
Tested at: 1 µM
target | assay | remaining binding
FGFR1 (Homo sapiens, UniProt P11362) | cell-free assay | 100%
TXK (Homo sapiens, UniProt P42681) | binding | 100%
NEK3 (Homo sapiens, UniProt P51956) | cell-free assay | 100%
MET (Homo sapiens, UniProt P08581, Y1235D) | cell-free assay | 95%

Sample 2
Target: Dual specificity mitogen-activated protein kinase kinase 2 (MAP2K2, Homo sapiens, UniProt P36507)
Observed: enzyme activity
Action: inhibitor
Tested at: 0.5 µM
Baseline: control
SMILES | remaining activity [%]
CNC(=O)c1cc(Oc2ccc(NC(=O)Nc3ccc(Cl)c(C(F)(F)F)c3)cc2)ccn1 | 89.7
OCC(O)CCON=C1C(c2c(O)[nH]c3ccccc23)=Nc2ccccc21 (stereo not drawn) | 86.5
COc1ccc(OC)c2c(=S)c3ccccc3[nH]c12 | 100
Oc1ccc(-c2nc(-c3ccncc3)c(-c3ccc(F)cc3)[nH]2)cc1 | 101
Cc1nc(-c2ccccc2)c(-c2ccncc2)o1 | 106
Cn1c2ccccc2c2c3c(c4c5ccccc5n(CCC#N)c4c21)CNC3=O | 92.5
Nc1ccc2ncnc(NCCc3ccc(Oc4ccccc4)cc3)c2c1 | 94.9
N#CC(C#N)=C(N)/C(C#N)=C/c1ccc(O)cc1 | 103
COc1cc2ncnc(Nc3ccc(F)c(Cl)c3)c2cc1OCCCN1CCOCC1 | 102
COc1cc2nccc(Oc3ccc(NC(=S)NC(=O)c4ccccc4C)cc3)c2cc1OC | 79.4
COc1ccc(CNC(=O)Nc2ncc([N+](=O)[O-])s2)cc1 | 73.5
Cn1sc(=O)n(Cc2ccccc2)c1=O | 101
COc1ccc(C(=O)Nc2sc3c(c2C(N)=O)CCCC3)cc1OC | 95.3

Sample 3
Target: CEP164, C-terminal peptide (human)
Method: DHFR complementation, deep sequencing
Matrix: yeast
Notes: single substitutions, model-inferred values
Baseline: wild type
Direction: higher = weaker binding
Starting sequence: PDZK1, PDZ domain 2 (human); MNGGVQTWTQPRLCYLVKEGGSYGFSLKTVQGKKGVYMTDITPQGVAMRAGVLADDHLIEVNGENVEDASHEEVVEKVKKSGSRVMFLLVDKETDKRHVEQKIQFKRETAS; partner HNRVKVYRF
Change | binding free energy change
L58N | 0.638 kcal/mol
V36Y | 1 kcal/mol
K18Q | 0.189 kcal/mol
E64S | 0.224 kcal/mol
D68K | -0.00524 kcal/mol
D56K | 1.17 kcal/mol
A110D | -0.0476 kcal/mol
D95S | -0.227 kcal/mol

Sample 4
Target: Phosphate system positive regulatory protein PHO4, full length, GST-tagged (PHO4, Saccharomyces cerevisiae, UniProt P07270, residues 1-312)
Method: competition protein-binding microarray
Molecule type: double-stranded DNA, one strand shown
Matrix: in vitro
Tested at: 2 µM
Notes: whole 60-bp probe, lowest competitor level
Together with: Cbf1 competitor, 0.05 µM
Direction: higher = stronger binding
Target sequence (chain): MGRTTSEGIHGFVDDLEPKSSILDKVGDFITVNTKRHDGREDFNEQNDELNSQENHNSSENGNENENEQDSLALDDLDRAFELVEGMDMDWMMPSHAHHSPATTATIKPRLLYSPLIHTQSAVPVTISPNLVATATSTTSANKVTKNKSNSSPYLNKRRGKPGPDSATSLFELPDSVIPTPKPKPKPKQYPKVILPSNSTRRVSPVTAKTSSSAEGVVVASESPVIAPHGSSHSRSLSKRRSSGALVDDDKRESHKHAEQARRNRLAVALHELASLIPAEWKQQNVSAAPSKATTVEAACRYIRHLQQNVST
Oligonucleotide | fluorescence intensity
TGGGCGGAAATCGCGCAGATGTGGTGTTTGAGTGTTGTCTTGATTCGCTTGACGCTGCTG | 4810 a.u.
CGGGGTTAAGTTTGTCACTCGACTTGCTTGCAGCAGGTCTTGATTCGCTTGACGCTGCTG | 3030 a.u.
TGATACAAGTCGTCGTCCGTGACGAAGGATCAGGAAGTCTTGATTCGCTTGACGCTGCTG | 4010 a.u.
GTCTTGTCTCATTGTGGAGTGGGTGTCCCCACTTCAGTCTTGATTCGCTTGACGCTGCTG | 4940 a.u.
TGCAACAACAATGCCACTTAAAACTGGCTTAACTGTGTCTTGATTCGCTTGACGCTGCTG | 3640 a.u.
TTCCACCGAATTTCCCACCTGATAATATCTGATAACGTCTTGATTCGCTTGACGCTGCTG | 3770 a.u.
CGGGGTTAAGTTTTTCACGTGCTATGCTTGCAGCAGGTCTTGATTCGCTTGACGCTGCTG | 13100 a.u.
TGCGCAACAACTTGTGTAGTGGGTGTATGTCTAGAAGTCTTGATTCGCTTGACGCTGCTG | 5050 a.u.

Repeated from above (sample 2):
SMILES | remaining activity [%]
Cn1c2ccccc2c2c3c(c4c5ccccc5n(CCC#N)c4c21)CNC3=O | 92.5
Nc1ccc2ncnc(NCCc3ccc(Oc4ccccc4)cc3)c2c1 | 94.9
N#CC(C#N)=C(N)/C(C#N)=C/c1ccc(O)cc1 | 103
COc1cc2ncnc(Nc3ccc(F)c(Cl)c3)c2cc1OCCCN1CCOCC1 | 102
